Published values of several laboratories.
Every numbered part comes from another study and shows a few of its results, in no order.

Set 1 — technique: RNA Bind-n-Seq; molecule type: RNA; sample: in vitro; tested at: not given; notes: RNA with constant flanks, ends assumed; reference: input RNA pool; direction: higher = stronger binding; endpoint: bound/input enrichment
Target: RING finger protein unkempt homolog, zinc fingers 1-6, GST-SBP tag (UNK, Homo sapiens, UniProt Q9C0B0, residues 30-357)
Chain of UniProt Q9C0B0 (30-357, looked up): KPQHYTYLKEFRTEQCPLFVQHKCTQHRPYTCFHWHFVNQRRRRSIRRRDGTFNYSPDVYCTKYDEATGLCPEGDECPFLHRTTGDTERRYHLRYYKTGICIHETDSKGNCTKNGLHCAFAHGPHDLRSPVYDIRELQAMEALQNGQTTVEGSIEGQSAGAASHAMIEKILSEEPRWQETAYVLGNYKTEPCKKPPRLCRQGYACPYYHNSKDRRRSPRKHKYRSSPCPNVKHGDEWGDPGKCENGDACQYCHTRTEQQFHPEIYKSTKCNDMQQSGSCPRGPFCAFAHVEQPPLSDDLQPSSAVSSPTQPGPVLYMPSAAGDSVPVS
All sequences stand within: GGGAGUUCUACAGUCCGACGAUC … CAACAGAGGAUUGAGCAUCA
UUAGUGAACAGCACUGAUCUCUGUAUAGUCCCCAUCACUAAUGUCAGAACCCAGCGUAUGCCGCAUUUGUAUUGCAGUUUCCCUGGCUUCCUUUACGUUUUGCACUGAUGAAUUUUGACA: 0.148 ratio
GAUAUACUUACGUAAUGGAGCUGUCAAAGCCGAGAGACCAGCCUGCGUCCUAAAGUUUGCUUCCGAGAGUAGGAAUGUCGGGGUUUCCAGUUAGAAAACCUUUAUUUUUGGAAACGGAAU: 3.84 ratio
UCUGUCAGAUUGCUUUCAGGGAUCAGGGAAGGUCUGUAGGCAGAAGGUAUGAUGGUGCCCCCGCAGAGUAUGAAACCUUACUCAUUACAGUAAUUAAUUAGGGAAGCAGCCGCAGGCCGU: 1.18 ratio
GAAUUGGUACAAGCCAUGUUUCCCAAACUGAACAAUCAAGAAAGAGUUACACUGUCCGACCUUAUGACCGCCAAGAUAACGAGUGAUGAGCCACUCACCAAGGAUGACAUCCCUGUGUUU: 0.136 ratio
UUUCCUGUACCAAGCACCCAGCUCUCCUCUUGUUCUGAAAGGGAUUUCACAUCUUCAGCGCCGCUUCAGUACAUCAUCGGAGGAGUCUGCUGUCCCUAACACAGAGGGAGACCUCGCUUU: 0.151 ratio
UUGUGUAGAAGAUGGACUCUGAAAGACAUUCCAAGAGUGCCGCGGCAGCAUGGGAGCCUCUCCGUGAUUGUGUCAGUAUUAUUGUGGAAGAUUGCCUUUGCUGUUGUAUGUAAAGUUUCA: 0.138 ratio
GUGGCUGAGUACGAUGCCUAUUUUGAGGAGGUUAAACAAGAGAUCAAUCAAAGGCUGACCCUCCGUGACUUCCUGAUCAAGCCCAUUCAGAGAAUAACAAAGUACCAGCUGCUACUCAAG: 0.135 ratio
UUUAAAGAAAAUACAAAGAUGCAGUUUCUGCAGGGUGUGGCGUGGACCAGUGCUGCCGACCACCGCUCAGAGAGCCCUGCCCCUGCCUCACUGCACUGCAGCCUCCUCGGAGGCCGCACC: 0.184 ratio
GACUCUCAGUUUAACAUUAUGUCUGUUAAAACUCUGACAAGCAUUCCGAUUUUGUUAUUUAUCCGCAGUGUCAAGUCUUGUGACUAUUAAAAGAACCACUGUAAUUCAAAACAUCAGCGU: 0.167 ratio
AAAUUUAAAAAUUCUUUCUGUUGUACAGAAUUAAAUGAGGAAAACAAACAAUCUCAUUCGUUCCGUUUGCAGACUCCUUGUUCAAAAGGUAGUGAAUUAAGAACAAUUAAUAAGAUUUCU: 1.58 ratio
AGCCAGUCCCUAGGGCUCAGGGAGCAGGAGCUUCAGGUUGUCCGAGCAUCUGGGAAGUAAGUGGCCGGGGUGACAGGAAGCUAGGAGUACAGGCAUCCAUCUGUGGUGGGGAAACAGCUG: 0.189 ratio

Set 2 — technique: protein binding microarray; molecule type: double-stranded DNA, one strand shown; sample: in vitro; tested at: not given; reference: not given; direction: higher = stronger binding; endpoint: E-score
Target: Histone acetyltransferase KAT6A, winged helix 1, GST fusion (KAT6A, Homo sapiens, UniProt Q92794, residues 1-85)
Notes: 8-mer, flanks averaged, mean of 2 arrays, mostly near background
Residues (chain): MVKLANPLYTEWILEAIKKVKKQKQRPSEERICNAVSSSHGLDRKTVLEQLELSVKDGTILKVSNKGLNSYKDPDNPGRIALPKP
ATGATGTG: -0.0824
AATGTAAT: -0.0289
AAATAGCC: 0.00669
GACGTAAC: -0.0952
CTTTCCCC: -0.154
ACTGTAGA: -0.204
CTTTACGA: 0.000655
AGAATGGG: -0.21
ACCGCTCT: 0.183
GAGTACTA: -0.0419
AGATACGG: 0.153
AGGGGAAA: -0.153
GCAGCCGC: 0.307
AACGTATG: -0.172
CGAAGATC: -0.0982
ATTTTTTA: -0.155
AGATCTGA: -0.0983
GTAAGAAA: -0.118
AAAACCAG: -0.0348
GTTTTCGA: -0.058
ATCTATAG: -0.0619
TCACGCCA: -0.0384
AACCTGTG: -0.274

Set 3 — technique: RNAcompete; molecule type: RNA; sample: in vitro; tested at: 20 nM; notes: 7-mer, probes averaged, single round; reference: mean of 7-mers; direction: higher = stronger binding; endpoint: 7-mer Z-score
Target: PABPC1L2, full length, GST fusion (mouse, UniProt A0ABA7IW68)
Construct (chain): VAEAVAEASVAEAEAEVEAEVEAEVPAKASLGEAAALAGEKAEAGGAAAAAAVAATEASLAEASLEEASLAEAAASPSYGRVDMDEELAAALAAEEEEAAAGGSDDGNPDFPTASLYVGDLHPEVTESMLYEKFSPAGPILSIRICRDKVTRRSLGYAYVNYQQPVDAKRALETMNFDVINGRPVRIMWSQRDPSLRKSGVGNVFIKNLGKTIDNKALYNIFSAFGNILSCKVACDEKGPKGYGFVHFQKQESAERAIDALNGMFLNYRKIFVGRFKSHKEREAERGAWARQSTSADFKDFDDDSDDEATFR
UGUCGGU: -0.142
AGUCAUG: -0.2
UGCAUGA: 0.0134
CUUAUGG: -0.222
CAGGGUC: 0.109
GACGAUA: 0.0895
AGACUAA: 0.144
AGGACAU: 0.186
AGCGACG: 0.149
UACCUGC: -0.336
GGCAAGG: 0.361
GUUAAGG: -0.151
CAUUUGC: -0.407
GCCUAAC: -0.257
GGUAGUU: -0.351
CAUGUGG: 0.00798
UACAUAG: -0.146

Set 4 — technique: competition protein-binding microarray; molecule type: double-stranded DNA, one strand shown; sample: in vitro; tested at: 2 µM; with: Pho4 competitor, 0.05 µM; direction: higher = stronger binding; endpoint: fluorescence intensity; all sequences stand within: … GTCTTGATTCGCTTGACGCTGCTG
Target: Centromere-binding protein 1, full length, His-tagged (CBF1, Saccharomyces cerevisiae, UniProt P17106, residues 1-351)
Chain of UniProt P17106 (whole entry, looked up): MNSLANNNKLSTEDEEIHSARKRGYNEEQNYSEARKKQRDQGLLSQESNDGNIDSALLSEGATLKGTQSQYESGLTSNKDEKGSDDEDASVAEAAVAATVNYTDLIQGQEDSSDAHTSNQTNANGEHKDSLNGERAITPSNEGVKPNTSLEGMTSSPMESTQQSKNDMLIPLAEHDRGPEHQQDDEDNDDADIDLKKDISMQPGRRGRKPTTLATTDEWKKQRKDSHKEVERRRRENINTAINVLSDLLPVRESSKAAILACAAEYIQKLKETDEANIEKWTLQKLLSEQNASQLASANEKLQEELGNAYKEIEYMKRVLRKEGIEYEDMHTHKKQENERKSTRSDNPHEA
Notes: whole 60-bp probe, lowest competitor level
CGCGCAAGTGTTCACCACGTAATCGCATCGCCCCTC: 62.2 a.u.
CCGTATCTAGTATCGCACGCTCTTTTGCAAAAATAT: 138 a.u.
AAAGCGGTAATTTGTCACTCGACTTCACATATCTAT: 78.9 a.u.
AAGAAAAAATTCACAAGCGTGTCCTTTAGTGCAGCT: 79.7 a.u.
AAAAAACTACCCCATCACGTGAAATTTATTAGAAAA: 4480 a.u.
TCTCATAAAAGTGAAACCGTGACGAATGTAAGATGT: 152 a.u.
TGGAAATAACACTTCCACGTGGAACTATTAAATTGG: 1070 a.u.
CGGGGTTAAGTTTGTCACCGAACTTGCTTGCAGCAG: 60.1 a.u.
CGTCCTAGTGATTGTCACCAAACTTCCATGAGGAAG: 75 a.u.
TCTCTTTCGAAAATGCTCGTGTAGCTCAGTGGTTAG: 80.8 a.u.
GTCTTGTCTCATTGTGTGGTGGGTGTCCCCACTTCA: 71.9 a.u.
CGTCCTAGTGATTGCTGGGTGGGTGCCATGAGGAAG: 75.4 a.u.
GAAGCACTTGCCTTCACCGTGCGGAGCGTCGAATTG: 57.6 a.u.
CGGGGTTAAGTTTGCAGTGTGGGTGGCTTGCAGCAG: 79.6 a.u.
TTTTATCTCCGATAGTACGTGGGACTTTATTTATGG: 77.3 a.u.
CTTCTCGAATCCTAAGGCGTGCAAAGATATGAGAAT: 90 a.u.
AGAATGCCACCAGACTTCATGACAGAAAAAGCTGCC: 70.6 a.u.
CATACCCAACCTTTTCACGTGACATAAGATATTTGT: 6070 a.u.
CGGGGTTAAGTTTGCATGGTGGGTGGCTTGCAGCAG: 64.8 a.u.
CTCTCGATGGGCCATCACGTGAAGTAGGCACTATCA: 2180 a.u.
GCAATAATGAACCGTCACATGCAAGCCCCATACGCC: 450 a.u.
GTCTTCTCCAAAACATTCGTGACGAATAGTCCTGCT: 83.5 a.u.
CTATCCAGCCACTCCCATGTGATAACGGTCGAAGTG: 245 a.u.
CTAACGAAGGTTTGTCACAGAACTTACAAGCCAAGT: 67.7 a.u.
TGAGGTAAGATTCTCTCCGTGCCAGCCTCTGGTGCT: 56.8 a.u.

Set 5 — technique: RNA Bind-n-Seq; molecule type: RNA; sample: in vitro; tested at: 365 nM; reference: no-protein control; direction: higher = stronger binding; endpoint: RBNS enrichment (R)
Target: RNA binding protein fox-1 homolog 2, RRM domain, GST-SBP tag (RBFOX2, Homo sapiens, UniProt O43251-10, residues 100-194)
Notes: natural RNA segment, single round, ends assumed
All sequences stand within: GGGAGUUCUACAGUCCGACGAUC … UGGAAUUCUCGGGUGCCAA
Residues (chain): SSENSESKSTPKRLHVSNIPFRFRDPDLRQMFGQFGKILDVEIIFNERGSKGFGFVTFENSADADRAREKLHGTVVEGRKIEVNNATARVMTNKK
CCAGGGCAGAGCCUCUCCUUGUACUUUGGCAGCCAUAGAAAGCGUGCUCAUUUUCUGUUUUCCUGUGUUAGGAAAAAACCACCUGUUUUCCAAGGGGAGAGGGCGGGGCC: 0.824
UGCAAGCACAAGAACAGACACCUGGUCAGCAUGGUGCUGAAACCCCUUUCUCUUCACUGUCAUGGUGCGAGAAAAGCAUGCCAUGUCUACGAGUAGGAUCUCUUCACGGA: 8.24
CUUACUUUCUUCUUAUGUAUACAUAAUUAAAUGAAAAGUCUUCAUAGGAGUUUGACAAAAUGAAUUGUGGUUAUAAAACGAAUUUGCUUUUUUGUUGUUUUGUUUUUCUU: 0.629
GUGAGCAGGGAGCAUAAUUAUUGGUUUAUUAUGGUAAUUAUGGUGAUUUUUUAAAUAUCAUGUAAUGUUAAAACGUUUUCUAACAGUUUACUGUUGCUUAUCUCCAAGAU: 0.362
UAUCGGUUCUCAAUAAAUUACUGAGCAGCUUUGUUUGGGGAGGGAAGUCCCUACCAUCCUUGUUUAGUCUAUAUUAAGAAAAUCUGUGUCUUUUUAAUAUUCUUGUGAUG: 0.585
UUUAUUUUUUUUCUGUAACUGUGCUUGUUGAAUGUCAAUCAUAUUUAAAGGGAAUGACUUUGAAGUAAAACCUUUUUUCUUGCUACUGAAAAAAAUGGAGUUGUUUUGGG: 2.35
UGCUACCAAUGCAGAUAAACGCGGCUUGUUUUACUCAGGCAAGAGAAUGUGAAUAGUGCCAAGAAAAUCCUUUACAUUAUUUAAUAAAAAUUGAAUCCAUUUUCUAUCUU: 0.254
GUAGUACUAAAUGGUAUCCUUAGAUUAAAAUUUUGUGCUUGAUAACAGCUGUUUUUUCUACAUUAGAAAUAAGAUGCCACACAAGGAACUACAUUCCAGAUUUAAAGAAA: 0.305
GUAAAUCACUGAACCUUUUUUUCAAGAAGGACAAGAAUUUUGGAGUCUGCUAUUAAUGGACCAUAUUUAUUACAGUUUUUAAAUUGUACAAUCUCUGUAUUAUAGCUAUU: 0.398
UCCUCGUCUUCUUCAUCCUCAUCAUCCUCCACGUGCAGUGAUGUGGCAGCACAGACCCCUGGAGGCCCCGGAGGACCCGAGGCGGGGUCCAAGGCUGAGUGAGAGCCGGC: 0.468
CACUUUAUUUUUUCACAAUUAAAUAAGAAUUGUAGAUUAAUACACCUCUAUCUUGCAUGGGAAGGAGGGAAAUAUGCGUUAUUUACUGUAAAAAAAUGGAAUUUAAAGGA: 15.4
CUCGGGAAAGCAAAGAAGCUGCUUUAAAAAAUAAAAAGGGGACUAAAAAUUUGUUUUGUAUAAAGAGGUUAGCCCUGCGCACGUAGGACUGAAUUCAGUGAUAUCCCUAU: 1.96

For quick reference, copied from above (set 2):
AGAATGGG: -0.21
ACCGCTCT: 0.183
GAGTACTA: -0.0419
AGATACGG: 0.153
AGGGGAAA: -0.153
GCAGCCGC: 0.307
AACGTATG: -0.172
CGAAGATC: -0.0982
ATTTTTTA: -0.155
AGATCTGA: -0.0983
GTAAGAAA: -0.118
AAAACCAG: -0.0348
